Assay results from different studies.
Protocols differ between the studies behind these lines. ± marks the error that the study gave.
Effect on: binding
ACTA1: Actin, alpha skeletal muscle (ACTA1, Oryctolagus cuniculus, UniProt P68135)
PTH1R: Parathyroid hormone/parathyroid hormone-related peptide receptor (PTH1R, Homo sapiens, UniProt Q03431)
UniProt Q03431, sequence (whole entry, looked up): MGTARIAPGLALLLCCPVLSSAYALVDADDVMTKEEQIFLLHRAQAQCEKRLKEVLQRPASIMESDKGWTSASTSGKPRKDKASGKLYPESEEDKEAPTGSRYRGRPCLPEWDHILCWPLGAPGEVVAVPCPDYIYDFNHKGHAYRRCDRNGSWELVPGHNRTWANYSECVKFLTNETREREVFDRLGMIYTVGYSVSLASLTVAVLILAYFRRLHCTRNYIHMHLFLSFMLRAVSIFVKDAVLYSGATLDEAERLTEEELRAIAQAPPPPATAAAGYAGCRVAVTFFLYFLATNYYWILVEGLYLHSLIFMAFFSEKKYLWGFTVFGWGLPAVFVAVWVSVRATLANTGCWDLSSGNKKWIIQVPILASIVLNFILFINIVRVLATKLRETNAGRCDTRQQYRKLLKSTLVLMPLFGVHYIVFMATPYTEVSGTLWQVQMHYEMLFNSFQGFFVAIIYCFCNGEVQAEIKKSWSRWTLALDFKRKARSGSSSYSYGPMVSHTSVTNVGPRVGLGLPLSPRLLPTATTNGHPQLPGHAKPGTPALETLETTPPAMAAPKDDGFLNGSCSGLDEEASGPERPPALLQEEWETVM
Alpha-mannosidase: Alpha-mannosidase (Canavalia ensiformis, UniProt C0HJB3)
UniProt C0HJB3, sequence (whole entry, looked up): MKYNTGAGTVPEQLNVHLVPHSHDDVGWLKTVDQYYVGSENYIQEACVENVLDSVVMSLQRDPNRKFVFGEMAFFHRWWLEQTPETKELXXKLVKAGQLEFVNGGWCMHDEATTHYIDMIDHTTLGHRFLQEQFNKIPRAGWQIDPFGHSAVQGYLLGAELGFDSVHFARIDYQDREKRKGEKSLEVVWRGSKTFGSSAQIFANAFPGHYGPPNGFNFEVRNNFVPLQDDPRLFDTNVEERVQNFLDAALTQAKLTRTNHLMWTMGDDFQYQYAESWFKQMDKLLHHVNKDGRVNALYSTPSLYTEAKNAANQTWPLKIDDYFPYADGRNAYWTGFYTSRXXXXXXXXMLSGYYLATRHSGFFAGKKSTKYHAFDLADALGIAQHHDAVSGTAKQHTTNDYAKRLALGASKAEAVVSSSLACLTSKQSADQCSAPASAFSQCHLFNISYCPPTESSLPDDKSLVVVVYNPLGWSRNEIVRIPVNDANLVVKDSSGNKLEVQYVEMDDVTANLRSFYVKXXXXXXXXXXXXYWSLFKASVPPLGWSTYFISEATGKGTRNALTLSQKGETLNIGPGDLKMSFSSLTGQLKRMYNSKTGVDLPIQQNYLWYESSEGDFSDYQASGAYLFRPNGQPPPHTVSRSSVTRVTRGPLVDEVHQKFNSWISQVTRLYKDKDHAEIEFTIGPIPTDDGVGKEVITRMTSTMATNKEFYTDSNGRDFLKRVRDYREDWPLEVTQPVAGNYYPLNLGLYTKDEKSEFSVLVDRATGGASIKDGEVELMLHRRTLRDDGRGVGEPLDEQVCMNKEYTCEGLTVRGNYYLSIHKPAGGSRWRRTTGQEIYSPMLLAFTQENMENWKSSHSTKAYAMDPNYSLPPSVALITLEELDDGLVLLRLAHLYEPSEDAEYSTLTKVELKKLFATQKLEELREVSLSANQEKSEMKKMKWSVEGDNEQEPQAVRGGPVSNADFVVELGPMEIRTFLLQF
UniProt Q07021, sequence (whole entry, looked up): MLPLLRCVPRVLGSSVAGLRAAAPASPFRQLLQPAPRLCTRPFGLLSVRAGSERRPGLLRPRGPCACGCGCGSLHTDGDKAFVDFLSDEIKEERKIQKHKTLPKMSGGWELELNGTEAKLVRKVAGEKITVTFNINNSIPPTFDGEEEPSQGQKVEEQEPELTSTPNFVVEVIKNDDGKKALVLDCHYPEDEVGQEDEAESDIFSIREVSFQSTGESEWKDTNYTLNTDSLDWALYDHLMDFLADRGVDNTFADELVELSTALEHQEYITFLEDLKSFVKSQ
UniProt P51686, sequence (whole entry, looked up): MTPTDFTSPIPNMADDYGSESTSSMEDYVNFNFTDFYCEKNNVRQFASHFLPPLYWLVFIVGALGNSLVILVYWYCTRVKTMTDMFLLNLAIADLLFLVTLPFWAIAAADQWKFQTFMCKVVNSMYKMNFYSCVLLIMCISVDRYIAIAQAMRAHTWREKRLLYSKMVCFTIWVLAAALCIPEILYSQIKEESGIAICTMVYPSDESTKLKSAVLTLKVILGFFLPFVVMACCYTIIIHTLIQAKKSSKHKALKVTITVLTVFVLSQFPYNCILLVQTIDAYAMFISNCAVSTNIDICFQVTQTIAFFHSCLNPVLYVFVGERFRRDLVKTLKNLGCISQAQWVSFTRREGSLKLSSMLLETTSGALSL

CC(C)[C@H](NC(=O)[C@H](CCCCN)NC(=O)[C@H](C)NC(=O)[C@H](CC(N)=O)NC(=O)CNC(=O)[C@H](CCCNC(=N)N)NC(=O)[C@@H](NC(=O)[C@H](CCCCN)NC(=O)[C@@H](N)CO)[C@@H](C)O)C(=O)N[C@H](C(=O)NCC(=O)N[C@@H](CCCNC(=N)N)C(=O)N[C@@H](Cc1c[nH]c2ccccc12)C(=O)N[C@@H](CCCCN)C(=O)O)[C@@H](C)O  kon (ACTA1; SPR; pH 7): 3810 M⁻¹ s⁻¹
C[C@@H](O)[C@@H]1NC(=O)[C@H](CCCNC(=N)N)NC(=O)[C@H](CCCCN)NC(=O)[C@H](CC(N)=O)NC(=O)CNC(=O)[C@@H](N)CSSC[C@@H](C(=O)O)NC(=O)CNC(=O)[C@H](CCCNC(=N)N)NC1=O  kon (C1QBP (Homo sapiens, UniProt Q07021); SPR): 20200 M⁻¹ s⁻¹
CSCC[C@H](NC(=O)[C@H](CC(C)C)NC(=O)[C@H](CCC(N)=O)NC(=O)[C@H](Cc1c[nH]cn1)NC(=O)[C@H](CCC(=O)O)NC(=O)[C@H](CO)NC(=O)[C@@H](NC(=O)[C@@H](N)CO)C(C)C)C(=O)N[C@@H](Cc1c[nH]cn1)C(=O)N[C@@H](CC(N)=O)C(=O)N[C@@H](CC(C)C)C(=O)NCC(=O)N[C@@H](CCCCN)C(=O)N[C@@H](Cc1c[nH]cn1)C(=O)N[C@@H](CC(C)C)C(=O)N[C@@H](CC(N)=O)C(=O)N[C@@H](CO)C(=O)N[C@@H](CCSC)C(=O)N[C@@H](CCC(=O)O)C(=O)N[C@@H](CCCNC(=N)N)C(=O)N[C@H](C(=O)N[C@@H](CCC(=O)O)C(=O)N[C@@H](Cc1c[nH]c2ccccc12)C(=O)N[C@@H](CC(C)C)C(=O)N[C@@H](CCCNC(=N)N)C(=O)N[C@@H](CCCCN)C(=O)N[C@@H](CCCCN)C(=O)N[C@@H](CC(C)C)C(=O)N[C@@H](CCC(N)=O)C(=O)N[C@@H](CC(=O)O)C(=O)N[C@H](C(=O)N[C@@H](Cc1c[nH]cn1)C(=O)N[C@@H](CC(N)=O)C(=O)N[C@@H](Cc1ccccc1)C(=O)N[C@@H](CCCCNC(=O)c1ccc2c(c1)C1(OC2=O)c2ccc(N(C)C)cc2Oc2cc(N(C)C)ccc21)C(N)=O)C(C)C)C(C)C  kon (PTH1R; NanoBRET; pH 6.5, MES buffer): 680000 ± 300000 M⁻¹ s⁻¹
O=C(CCO)c1ccc(O)cc1  kon (Alpha-mannosidase; surface plasmon resonance; 25 °C): 9.92 M⁻¹ s⁻¹
CC(C)[C@H](NC(=O)[C@H](CCCCN)NC(=O)[C@H](C)NC(=O)[C@H](CCCCN)NC(=O)CNC(=O)[C@H](CCCNC(=N)N)NC(=O)[C@@H](NC(=O)[C@H](CCCCN)NC(=O)[C@@H](N)CO)[C@@H](C)O)C(=O)N[C@H](C(=O)NCC(=O)N[C@@H](CCCNC(=N)N)C(=O)N[C@@H](Cc1c[nH]c2ccccc12)C(=O)N[C@@H](CCCCN)C(=O)O)[C@@H](C)O  kon (ACTA1; SPR; pH 7): 4150 M⁻¹ s⁻¹
COc1cc(C(O)C(CO)c2ccc(O)c(OC)c2)ccc1O (stereo not drawn)  kon (Alpha-mannosidase; surface plasmon resonance; 25 °C): 16.2 M⁻¹ s⁻¹
CSCC[C@H](NC(=O)[C@H](CO)NC(=O)[C@H](CC(N)=O)NC(=O)[C@H](CC(C)C)NC(=O)[C@H](Cc1c[nH]cn1)NC(=O)[C@H](CCCCN)NC(=O)CNC(=O)[C@H](CCCCN)NC(=O)[C@H](CC(=O)O)NC(=O)[C@H](Cc1c[nH]cn1)NC(=O)[C@H](CC(C)C)NC(=O)[C@H](CC(C)C)NC(=O)[C@H](CCC(N)=O)NC(=O)[C@H](Cc1c[nH]cn1)NC(=O)[C@H](CCC(=O)O)NC(=O)[C@H](CO)NC(=O)[C@@H](NC(=O)[C@H](C)N)C(C)C)C(=O)N[C@@H](CCC(=O)O)C(=O)N[C@@H](CCCNC(=N)N)C(=O)N[C@H](C(=O)N[C@@H](CCC(=O)O)C(=O)N[C@@H](Cc1c[nH]c2ccccc12)C(=O)N[C@@H](CC(C)C)C(=O)N[C@@H](CCCNC(=N)N)C(=O)N[C@@H](CCCCN)C(=O)N[C@@H](CCCCN)C(=O)N[C@@H](CC(C)C)C(=O)N[C@@H](CCC(N)=O)C(=O)N[C@@H](CC(=O)O)C(=O)N[C@H](C(=O)N[C@@H](Cc1c[nH]cn1)C(=O)N[C@@H](CC(N)=O)C(=O)N[C@@H](Cc1ccccc1)C(=O)N[C@@H](CCCCNC(=O)c1ccc2c(c1)C1(OC2=O)c2ccc(N(C)C)cc2Oc2cc(N(C)C)ccc21)C(N)=O)C(C)C)C(C)C  kon (PTH1R; NanoBRET; HEK293 stably expressing receptor; room temperature, 0.02% sodium azide, together with: 5 µM coelenterazine h): 590000 ± 100000 M⁻¹ s⁻¹
CC(=O)C=C=C1C(C)(C)C[C@H](O)C[C@@]1(C)O  kon (Alpha-mannosidase; surface plasmon resonance; 25 °C): 6.12 M⁻¹ s⁻¹
CN(C)c1ccc2c(-c3ccc(C(=O)NCCCn4cc(COc5cc(C(=O)c6cc(Cl)ccc6NS(=O)(=O)c6ccc(C(C)(C)C)cc6)cc[n+]5[O-])nn4)cc3C(=O)[O-])c3ccc(=[N+](C)C)cc-3oc2c1  kon (CCR9 (Homo sapiens, UniProt P51686); BRET; cell membranes): 7980 M⁻¹ s⁻¹

A few entries again:
CN(C)c1ccc2c(-c3ccc(C(=O)NCCCn4cc(COc5cc(C(=O)c6cc(Cl)ccc6NS(=O)(=O)c6ccc(C(C)(C)C)cc6)cc[n+]5[O-])nn4)cc3C(=O)[O-])c3ccc(=[N+](C)C)cc-3oc2c1  kon (CCR9 (Homo sapiens, UniProt P51686); BRET; cell membranes): 7980 M⁻¹ s⁻¹
